Experimental data collected from several papers.
Numbers after ± are the reported error.
UniProt Q96GX5, sequence (whole entry, looked up): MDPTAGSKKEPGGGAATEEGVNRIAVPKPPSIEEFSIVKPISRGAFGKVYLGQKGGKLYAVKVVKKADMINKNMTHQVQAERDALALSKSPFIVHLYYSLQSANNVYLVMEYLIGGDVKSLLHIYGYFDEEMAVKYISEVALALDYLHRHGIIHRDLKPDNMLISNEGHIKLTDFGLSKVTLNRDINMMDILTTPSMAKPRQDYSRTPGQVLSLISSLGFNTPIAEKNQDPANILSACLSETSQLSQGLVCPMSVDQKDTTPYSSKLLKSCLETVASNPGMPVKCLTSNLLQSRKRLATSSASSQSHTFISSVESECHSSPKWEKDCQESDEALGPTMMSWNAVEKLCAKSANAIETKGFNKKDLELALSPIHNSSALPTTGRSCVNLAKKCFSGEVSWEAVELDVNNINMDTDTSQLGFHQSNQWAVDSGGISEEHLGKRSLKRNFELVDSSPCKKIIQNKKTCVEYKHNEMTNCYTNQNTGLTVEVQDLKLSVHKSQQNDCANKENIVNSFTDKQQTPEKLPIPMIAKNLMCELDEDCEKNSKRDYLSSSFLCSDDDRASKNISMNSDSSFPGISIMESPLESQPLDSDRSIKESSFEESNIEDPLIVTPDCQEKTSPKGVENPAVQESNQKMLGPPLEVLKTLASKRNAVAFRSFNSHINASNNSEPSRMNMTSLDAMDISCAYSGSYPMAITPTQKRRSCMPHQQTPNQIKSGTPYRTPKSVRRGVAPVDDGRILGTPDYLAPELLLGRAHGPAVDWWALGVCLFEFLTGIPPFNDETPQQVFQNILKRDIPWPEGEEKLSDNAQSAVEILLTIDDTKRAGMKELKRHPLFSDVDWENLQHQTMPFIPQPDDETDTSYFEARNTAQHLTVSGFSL

CC[C@@H]1[C@H](F)C(=O)N[C@@H]1COc1nccc2cc(C(N)=O)c(OC)cc12  inhibition (MASTL (Homo sapiens, UniProt Q96GX5); ATP-site probe binding, ActivX profiling; THP-1 cell lysate; 0.01 mM, Lys1 site): -10.8%
O=C(COc1ccc(Cl)cc1)NC12CC(c3nnc([C@H]4C[C@@H](OC(F)(F)F)C4)o3)(C1)C2  adverse event incidence (refers to: Presyncope; human; 100 mg once daily, 28 (unit not given)): 10%
Brc1cccc([C@H]2COC[C@@H](C3CCCCC3)N2)c1  solubility (shake-flask, LC-HRMS; aqueous buffer; 16 h, pH 6.8): < 4 µM
CCc1cc(C(=O)NC)c2nccc(N3CCc4c(cc(Cn5ccnc5)cc4-c4cn(C)nc4C(F)(F)F)C3=O)c2c1  MRT(0-inf) (Sprague Dawley rat, male, plasma; oral, 100 mg/kg twice daily, 7 days): 9.1 h
CC(C)(C(=O)N1CCOc2c(C#N)cncc2C1)C(F)F  subjects with adverse event (refers to: infections and infestations; human; oral, 10 mg once daily, 14 days, multiple ascending dose): 0%
CCc1ccc(-c2ccc(-c3cc(F)c(F)c(F)c3)c(F)c2)cc1  placental accumulation (rat, placenta; 5000 ng/mL in perfusate, high dose, mixture of 21 LCMs): 395 ± 541 ng/g
O=C(O)CCCOc1ccc([18F])cc1-c1cc(-c2ccccc2C(F)(F)F)n(-c2ccccc2)n1  radioactivity uptake (gamma counting; male ddY mice, lung; intravenous, 2.1 MBq, 1 min): 1.42 ± 0.73 SUV
CN1CCC(CNc2ccc3ncc(-c4cccc(OC(F)(F)F)c4)n3n2)CC1  lowest toxic concentration (immunosuppression signature, BioMAP Diversity PLUS; primary human cell cocultures): 3.3 µM
Cc1cc(C)c(CNC(=O)c2cc(Cl)c3c(c2C)O[C@@](C)([C@H]2CC[C@H](N(C)C)CC2)O3)c(=O)[nH]1  excretion as parent (human male, feces; oral, 200 mg; reference: dose): 64.9%
NC/C(=C\F)COc1cccc(Cn2c(=S)[nH]c(=O)c3[nH]cnc32)c1  concentration (C57BL/6J mice, kidney; oral, 15 mg/kg single, 1 h): 1140 ng/mL
Cn1ncnc1[C@H]1c2n[nH]c(=O)c3cc(F)cc(c23)N[C@@H]1c1ccc(F)cc1  AUCτ (human patients, plasma; oral, 600 µg/m2 twice daily day 1, day 5, dose level DL6, median, together with: temozolomide 55 mg/m2 daily days 2-6): 215 ng·h/mL
CCOc1c([C@H](C)n2nc(C)c3c(N)ncnc32)cc(Cl)c(F)c1[C@@H]1CNC(=O)C1  ECG observations (refers to: QTcF change above 60 ms; previously treated B-cell malignancy; oral, 45 mg once daily, baseline QTcF ≤450 ms; reference: baseline): 0%
CCOC(=O)N1C[C@@H]([C@H]2CCOC2)N[C@@H](C2CCCCC2)C1  solubility (shake-flask, LC-HRMS; aqueous buffer; 16 h, pH 6.8): > 750 µM
Cc1ccc(C)c(OCCCC(C)(C)C(=O)O)c1  trough plasma concentration (human, plasma; oral, dose not given, day 12 predose, median): 1680 ng/mL
CCC(C)n1ncn(-c2ccc(N3CCN(c4ccc(OCC5COC(Cn6cncn6)(c6ccc(Cl)cc6Cl)O5)cc4)CC3)cc2)c1=O (centres unmarked)  adverse events (healthy human volunteers; oral, 200 mg, event Investigations, continued dosing): 20%
CO[C@H]1C[C@@H]2CC[C@@H](C)[C@@](O)(O2)C(=O)C(=O)N2CCCC[C@H]2C(=O)O[C@H]([C@H](C)C[C@@H]2CC[C@@H](O)[C@H](OC)C2)CC(=O)[C@H](C)/C=C(\C)[C@@H](O)[C@@H](OC)C(=O)[C@H](C)C[C@H](C)/C=C/C=C/C=C/1C  heart rate (healthy adult horses; intravenous, 0.06 mg/kg, 24 h): 33.5 ± 2.8 beats/min
C[C@H]1COC2=C1C(=O)C(=O)c1c2ccc2c1CCCC2(C)C  equilibrium solubility (saline; 24 h, 25 °C): 10 µg/mL
N#Cc1ccc2c(c1)[C@H]1CCCN(C(=O)c3ccc4[nH]cnc4c3)[C@H]1C2  total testosterone level (human females; 360 mg, day 7): 0.6 nmol/L
CN(CCCN1CCN(C(=O)CN2CCN(CC(=O)[O-])CCN(CC(=O)[O-])CCN(CC(=O)[O-])CC2)CC1)c1ccc2nccc(C(=O)NCC(=O)N3CC(F)(F)C[C@H]3C#N)c2c1.[68Ga+3]  uptake (mice, HT-1080.hFAP and HT-1080 wild-type xenografts, spleen; iv, 500 pmol, 4 h post injection): 0.2 ± 0.1 %IA/g
Cc1c([C@H]2COC[C@@H](c3cc(Cl)cc(Cl)c3)N2)cnn1-c1ccccc1  solubility (shake-flask, LC-HRMS; aqueous buffer; 16 h, pH 6.8): < 4 µM
Cc1cc(NC2CCc3cc(Cl)ccc3C2)n2nc(C(C)(F)F)nc2n1 (centres unmarked)  AUC(0-t) (NSG mouse, whole blood; oral, 30 mg/kg): 22.8 µM·h
C[C@@H](NC(=O)N1C(=O)[C@H](Cc2ccnc(N)c2)[C@H]1C(=O)O)C1CCCCC1  Css (UPLC-MS/MS; healthy adult Chinese volunteers, plasma; continuous intravenous infusion, 1.0 mg/kg/h, day 1 of 5-day infusion, geometric mean): 2990 ng/mL
Cl.[2H]C([2H])([2H])CC(=O)c1cnc(NC(=O)C2CC2)cc1Nc1cccc(-c2ncn(C([2H])([2H])[2H])n2)c1OC  Vz/F (geometric mean; human; oral, 40 mg twice daily, day 7, fed, liquid, multiple dose): 132 L
COc1ccc([C@@H](O)c2cc(-c3ncnc4cc(N5CCOCC5)ccc34)c(F)cc2Cl)nn1  rectal haemorrhage TEAE (locally advanced rectal cancer; oral, 50 mg, together with: capecitabine and radiotherapy): 0%
Cc1ccc([C@@H]2O[C@H](CO)[C@@H](O)[C@H](O)[C@H]2O)cc1Cc1ccc(-c2ccc(F)cc2)s1  urinary potassium excretion change (Japanese type 2 diabetes patients; 400 mg, day 18, 24 h urine collection; reference: baseline): -3.04 mEq
O=C(Nc1cnccc1Cl)N1CCN(Cc2ccc3c(c2)OC(F)(F)O3)CC1  adverse event incidence (refers to: Fatigue; human healthy young men; 75 mg, multiple dose): 50%
CNCCOC12CC3(C)CC(C)(CC(Cn4ncc(-c5ccc(N6CCc7cccc(C(=O)Nc8nc9ccccc9s8)c7C6)nc5C(=O)O)c4C)(C3)C1)C2  heart rate change (beagle dog, male, anaesthetised; intravenous bolus, 0.03 mg/kg, 135 min; reference: baseline): -1%
C=CCN1CC(=O)N2[C@@H](Cc3ccc(O)cc3F)C(=O)N(Cc3cccc(N4CC(N5CCN(CC)CC5)C4)n3)C[C@@H]2N1C(=O)NCc1ccccc1  treatment-related AST increased (advanced solid tumour patients; oral, 15 mg twice daily, any grade, dose-escalation): 0%
O=c1[nH]c(=O)n([C@H]2C[C@H](O)[C@@H](CO)O2)cc1CCCCC[18F]  biodistribution (male CD-1 nu/nu mice, RG2 tumour, muscle; intravenous, dose not given, 2 h): 0.21 ± 0.12 %ID/g
Cc1cccc(CNC(=O)c2cn(CCNC(=O)c3ccccc3Sc3c([N+](=O)[O-])ncn3C)c3cc4c(cc3c2=O)OC(F)(F)O4)n1  MRT(0-inf) (Sprague-Dawley rat, male, plasma; intravenous, 5 mg/kg of parent compound): 0.67 ± 0.09 h
COc1nc(-c2cc(C)c(N[C@@H](C)c3cc(F)cc(F)c3)nn2)ccc1-n1cnc(C)c1  MRT(0-t) (cynomolgus monkey, male, plasma; oral, 2 mg/kg): 5.98 h
C[C@@H](Oc1ccc(S(C)(=O)=O)cc1C(=O)N1C[C@@H]2C[C@]2(c2cc(C(F)(F)F)on2)C1)C(F)(F)F  linearity index (healthy young humans, plasma; oral, 75 mg once daily; reference: AUCtau,ss over AUC(0-inf)): 0.899
Cn1cc(-c2ccc(-c3cncc(Cl)c3N3CCC4(CCNC4=O)CC3)cc2)cn1  log2 fold change (COLO 205; gene expression, microarray, refers to: FAM65C mRNA; concentration not given, 6 h; reference: untreated cells): -6.5
O=C(Nc1nc2cccc(-c3ccc(CN4CCS(=O)(=O)CC4)cc3)n2n1)C1CC1  treatment-emergent adverse events (refers to: injection site haematoma; human rheumatoid arthritis patients; oral, 75 mg once daily, 4 weeks, regardless of relatedness): 0%
CCOC(=O)N1C[C@@H](c2cc(F)c(O)c(F)c2)N[C@@H](c2cc3ccccc3cc2OC)C1  solubility (shake-flask, LC-HRMS; aqueous buffer; 16 h, pH 6.8): < 4 µM
COc1cccc(-c2n[nH]c(SCc3ccccn3)n2)c1OC  Cmax (Sprague-Dawley rat, male, plasma; oral gavage, 100 mg/kg): 78300 ng/mL
CCN1/C(=C/C(C)=O)Sc2ccc(F)cc21  mean blood pressure change (cynomolgus monkey; oral, 100 mg/kg, 6 h post-dose; reference: pre-dose): 104 ± 8.7%
Cn1c(Cc2ccccc2)nnc1Sc1ccc([N+](=O)[O-])cc1C(=O)N1CCOCC1  solubility (aqueous buffer; pH 7.4): 61.6 µg/mL
O=C(O)CCC(=O)O.[2H]C([2H])([2H])Oc1cc(C)c2[nH]ccc2c1CN1CC[C@@H](C2CC2)C[C@H]1c1ccc(C(=O)O)cc1  subjects with elevated LDL TEAE (multiple ascending dose; healthy Chinese subjects; 50 mg twice daily): 0%
O=C(Nc1ccc(OC(F)(F)Cl)cc1)c1cnc(N2CC[C@@H](O)C2)c(-c2ccn[nH]2)c1  patients with event (refers to: Triglyceride increase, any grade; human patients, dose-finding study; oral, sample G of sample B patients): 70.2%
Cc1nc(C)c(-c2ccnc(Nc3cccc([N+](=O)[O-])c3)n2)s1  solubility (aqueous buffer; pH 7.4): < 1.4 µg/mL
C=CC(=O)N1CCC([C@@H]2CCNc3c(C(N)=O)c(-c4ccc(Oc5ccccc5)cc4)nn32)CC1  stability relative error (rat plasma; 2 ng/mL, 3 h, room temperature; reference: nominal concentration): -1.3%
C[C@@H](N)C1CCN(S(=O)(=O)c2cccc3cnccc23)CC1  TEAE incidence (refers to: Nausea; healthy volunteers; 150 mg, fed): 0%
CCCCOc1ccc([C@H]2CC[C@H](CCC)CC2)c(F)c1F  placental accumulation (rat, placenta; 5000 ng/mL in perfusate, high dose, mixture of 21 LCMs): 395 ± 539 ng/g
C[C@H]1C[C@@H](N2C(=N)N[C@](C)(c3cccc(NC(=O)c4cccc(C#N)c4)c3Cl)CC2=O)CCO1  average molar extinction coefficient (289 to 302 nm): > 1000 L/mol/cm
COc1ccc2c(c1)CN(C(=O)CCN1CCC(Cc3ccccc3)CC1)CC[S@@+]2[O-]  systolic blood pressure (telemetry; conscious male beagle dogs; intravenous, 2 mg/kg, 2 h): 135 ± 16 mmHg
CC(C)(C)c1ccc([C@H]2COC[C@H](C3CCCC3)N2)cc1  solubility (shake-flask, LC-HRMS; aqueous buffer; 16 h, pH 6.8): < 4 µM
N[C@@H](C[18F])C(=O)O  tracer uptake (PET imaging; female athymic nude mice, U-87 MG xenograft, muscle; intravenous, 15 min): 1.23 ± 0.13 %ID/cc
C[C@H](CCC(=O)NCCS(=O)(=O)O)[C@H]1CC[C@H]2[C@@H]3[C@H](O)C[C@@H]4C[C@H](O)CC[C@]4(C)[C@H]3C[C@H](O)[C@]12C  Cmin (human, plasma; control): 7.59 ± 0.28 nM
O=c1[nH]c(=O)n([C@H]2C[C@H](O)[C@@H](CO)O2)cc1CCCC[18F]  biodistribution (male CD-1 nu/nu mice, RG2 tumour, brain; intravenous, dose not given, 2 h): 0.08 ± 0.01 %ID/g

Excerpt of the above:
O=C(Nc1nc2cccc(-c3ccc(CN4CCS(=O)(=O)CC4)cc3)n2n1)C1CC1  treatment-emergent adverse events (refers to: injection site haematoma; human rheumatoid arthritis patients; oral, 75 mg once daily, 4 weeks, regardless of relatedness): 0%
CCOC(=O)N1C[C@@H](c2cc(F)c(O)c(F)c2)N[C@@H](c2cc3ccccc3cc2OC)C1  solubility (shake-flask, LC-HRMS; aqueous buffer; 16 h, pH 6.8): < 4 µM
COc1cccc(-c2n[nH]c(SCc3ccccn3)n2)c1OC  Cmax (Sprague-Dawley rat, male, plasma; oral gavage, 100 mg/kg): 78300 ng/mL
CCN1/C(=C/C(C)=O)Sc2ccc(F)cc21  mean blood pressure change (cynomolgus monkey; oral, 100 mg/kg, 6 h post-dose; reference: pre-dose): 104 ± 8.7%
Cn1c(Cc2ccccc2)nnc1Sc1ccc([N+](=O)[O-])cc1C(=O)N1CCOCC1  solubility (aqueous buffer; pH 7.4): 61.6 µg/mL
O=C(O)CCC(=O)O.[2H]C([2H])([2H])Oc1cc(C)c2[nH]ccc2c1CN1CC[C@@H](C2CC2)C[C@H]1c1ccc(C(=O)O)cc1  subjects with elevated LDL TEAE (multiple ascending dose; healthy Chinese subjects; 50 mg twice daily): 0%
O=C(Nc1ccc(OC(F)(F)Cl)cc1)c1cnc(N2CC[C@@H](O)C2)c(-c2ccn[nH]2)c1  patients with event (refers to: Triglyceride increase, any grade; human patients, dose-finding study; oral, sample G of sample B patients): 70.2%
Cc1nc(C)c(-c2ccnc(Nc3cccc([N+](=O)[O-])c3)n2)s1  solubility (aqueous buffer; pH 7.4): < 1.4 µg/mL
